Measured values pooled from the literature.
Numbered parts are unrelated; each lists some results of a single study. Positions count from the first letter of the parent shown.

Set 1 — method: RNA Bind-n-Seq; form: RNA; sample: in vitro; concentration: 365 nM; relative to: no-protein control; direction: higher = stronger binding; measurement: RBNS enrichment (R)
Target: RNA binding protein fox-1 homolog 2, RRM domain, GST-SBP tag (RBFOX2, Homo sapiens, UniProt O43251-10, residues 100-194)
Notes: natural RNA segment, single round, ends assumed
Construct (chain): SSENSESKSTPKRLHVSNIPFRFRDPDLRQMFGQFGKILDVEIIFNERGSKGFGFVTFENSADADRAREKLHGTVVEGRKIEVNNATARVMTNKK
Strand = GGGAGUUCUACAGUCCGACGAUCGCUGAGGUUCCUCCAAGCAACCACCUUCUCCAGGCCCCUGGGGUGUUGAAAGUCAAAUGUGGCUGUUGAGUCCACAGACCCCCAUCCUAAUUCCUGCACCUGGAGGAGUUUGGAAUUCUCGGGUGCCAA; result = 0.458
Strand = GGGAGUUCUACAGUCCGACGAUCUAUAAGAGUGUUAAGGACCUAAUAGAGUGACAUAUAUAAAUUAAGCAUAAAAUAUGUAACCAGGAAAAGACUGUUAACAUUACAUUUAUGCAAAUUAAAUGCCCUUAAAUUGGAAUUCUCGGGUGCCAA; result = 0.344
Strand = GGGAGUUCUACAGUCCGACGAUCCCUGAGGGUUGAGUCAGUCUGUCUUGUUUGCUGUGCCACGCCUGAUGCCCAGCCCAGCAGCAUGCUUUGUACACUGAUAUAUUGGGUAAAUUUUGUUGAAUAAAUUAAGCUGGAAUUCUCGGGUGCCAA; result = 1.22
Strand = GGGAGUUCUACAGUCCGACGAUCAACUUCGGGGGUCGUUCUGUGCCUUCCAGCAUCUUGUACAGCAAAUCCUGACUCGUGUCUUUUUACCCCCAAGAUAUCUGUCUUCAGUAGCGACUGAAUCUGCCACUCUCUGGAAUUCUCGGGUGCCAA; result = 2.3
Strand = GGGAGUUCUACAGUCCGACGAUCCAGCCAAGGUUUUACAGGCCCUGAUGUCUGUUCUUCUAAAUGGUUUAAGUAAUUGGGACUCUAGCACAUCUUGACCUAGGGUCACUAGAGCUAAGCUUGCUUUGCAGGGCUGGAAUUCUCGGGUGCCAA; result = 0.279
Strand = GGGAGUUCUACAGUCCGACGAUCCCAGCUCAGUCCAUUGGAAUAGUAUUAGGUUUUGGUUUUUUGUUGUAUUUCCCCCUUUCCACUGGGCCCUUCCAACACAAUGAAUGAAGGAAAUAUCAUUUAUUUAAGCAUGGAAUUCUCGGGUGCCAA; result = 0.737
Strand = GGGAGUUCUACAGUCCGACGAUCCCUAAUAUGAUAUAUUAUUUUGUAGUAUCUCAGACUUUGUAAAUAAAUGCCAUUAUUUUUAUAUGGAAAUUUUAUAGAAGAGCUAUUUCUGUAUACGUAAUUACUCCUGAUGGAAUUCUCGGGUGCCAA; result = 0.628
Strand = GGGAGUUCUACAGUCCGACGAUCUCCUCAUGGGGCAGACGUGAUUGGCUCACAGUUGAAGUCAAAUCACUGCUUGGGCUGCUUGUAGCGGAAUCCUUGGAAAACAGUUGUUGAGGGCCUUGACAGAUCGGGCCUGGAAUUCUCGGGUGCCAA; result = 2.56

Set 2 — method: RNA Bind-n-Seq; form: RNA; sample: in vitro; concentration: 200 nM; notes: whole 134-nt RNA, ends assumed; with: 150 mM LiCl; relative to: input library; direction: higher = stronger binding; measurement: log2 enrichment; each molecule: 7-deaza-guanosine replaces G
Target: Ras GTPase-activating protein-binding protein 1, full length (G3BP1, Homo sapiens, UniProt Q13283)
Sequence of UniProt Q13283 (whole entry, looked up): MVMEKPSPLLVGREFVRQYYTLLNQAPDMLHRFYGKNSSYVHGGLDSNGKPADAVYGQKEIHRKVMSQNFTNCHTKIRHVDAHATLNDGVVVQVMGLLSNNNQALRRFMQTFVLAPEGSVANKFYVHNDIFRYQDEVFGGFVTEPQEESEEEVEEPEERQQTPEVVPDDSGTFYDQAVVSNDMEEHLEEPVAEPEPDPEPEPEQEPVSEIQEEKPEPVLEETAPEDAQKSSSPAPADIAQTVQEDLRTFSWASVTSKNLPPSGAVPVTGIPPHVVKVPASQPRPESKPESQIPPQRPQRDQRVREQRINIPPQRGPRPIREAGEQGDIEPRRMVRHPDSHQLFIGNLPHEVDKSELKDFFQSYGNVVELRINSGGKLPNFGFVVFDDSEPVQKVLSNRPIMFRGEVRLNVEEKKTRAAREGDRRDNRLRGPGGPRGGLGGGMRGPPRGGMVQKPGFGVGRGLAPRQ
Strand = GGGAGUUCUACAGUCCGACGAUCCAAGUCCUGUGCUACACAUCGUAUGUACCGAAUCGGAAAAAGGAGGAAAAAAAGGAAAGUAUUAUGUUACGCCGUUCGGAUCUGCACUUCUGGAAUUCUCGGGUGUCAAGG; result = -0.314
Strand = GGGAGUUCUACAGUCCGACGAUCUACCAAUUGGCCUUUAUUGACUGUAUCCAAAGGAUUUUUUGAAGGCACCAUUGCCAGCAAAGGUAAGUACCUAUUUCUCCCAUAGCACUUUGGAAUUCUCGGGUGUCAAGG; result = 0.31
Strand = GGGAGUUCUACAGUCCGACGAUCUGCCGUGCCGGGUGGACGGUCUGCUCGCCUGUCUGCGUGACGAAACUGAGGCACAAAGACGCGCUAUGCCAGCGGCGGGUAUAGCAAGGGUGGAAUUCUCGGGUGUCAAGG; result = -1.11
Strand = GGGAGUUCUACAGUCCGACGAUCCUGUGCUACACAUCGUAUGUACCGAAUCGGGAAAAAAAGGGGAAAAAAAGGGGAAAAAAAGGAAAGUAUUAUGUUACGCCGUUCGGAUCUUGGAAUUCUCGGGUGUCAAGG; result = 0.338
Strand = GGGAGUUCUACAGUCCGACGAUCGGUGAUGGUCAACAAGCCUCAACUGCCUCUGCUACAACUGCCAAGUUCCCCGCGUCCCACCCUCCUCUAGGUGCUCCAAGGGACCACCGGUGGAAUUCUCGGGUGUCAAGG; result = -0.446
Strand = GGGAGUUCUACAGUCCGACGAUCUAACUUUAGAGGAGGAUCUGAUGGAUAUGGCAGUGGACGUGAAUUUGGGGAUGGCUAUAAUGGGUAUGGAGGAGGACCUGGAGGUGGCAAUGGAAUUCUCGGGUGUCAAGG; result = -0.697
Strand = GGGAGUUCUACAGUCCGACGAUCCAAGUCCUGUGCUACACAUCGUAUGUACCGAAUCGGGAGGGAAAAAAAGGGUGGGAAAGUAUUAUGUUACGCCGUUCGGAUCUGCACUUCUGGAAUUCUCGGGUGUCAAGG; result = -0.385
Strand = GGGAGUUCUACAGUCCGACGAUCACCAUGCAGGUGGGCAUCUUUGGGAAGUGGGGCAAGGGGGGGAUAGAGAGGGGGGUAACACUUUGGGAACAGGUGGUCCCAGGUCGUUUCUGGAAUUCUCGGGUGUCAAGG; result = 0.151

Set 3 — target: CCNE1, cyclin fold, Cln2 fusion (human); method: yeast growth competition, sequencing; sample: yeast; notes: weak parent motif; relative to: not given; direction: higher = stronger binding; measurement: normalised enrichment score
Parent: MASTL docking peptide (human); PMIAKNLMCELDE
Change = PMICKNLMCELDE [A4C]; result = 0.105
Change = PFIAKNLMCELDE [M2F]; result = 0.0898
Change = PMIAKNLMCELRE [D12R]; result = -0.111
Change = PQIAKNLMCELDE [M2Q]; result = -0.0576
Change = PMIAKNLMCVLDE [E10V]; result = -0.107
Change = PMIAKDLMCELDE [N6D]; result = 0.334
Change = PMIAKNLLCELDE [M8L]; result = -0.0353

Single results of other studies
Molecule = PhoQ, residues 284 288 289 292 302 303 SLGVVW; target = PhoP, residues 12 14 15 18 19 IQFRS (Escherichia coli, UniProt P23836); test = Sort-seq, measured: YFP reporter; test system = E. coli; setting = PhoQ-PhoP variant library, with: 10 µM Mg2+; how to read = relative to: high Mg2+ state, higher = stronger signaling; measurement = fold induction; result = 65.6

For quick reference, copied from above (set 3):
Change = PMIAKDLMCELDE [N6D]; result = 0.334
Change = PMIAKNLLCELDE [M8L]; result = -0.0353
Change = PMIAKNLMCELRE [D12R]; result = -0.111
